Published values gathered from unrelated publications.
A part holds a random share of what one study measured.

Series 1
Target: UBE2V1 UBC core domain (UniProt Q13404)
Sequence of UniProt Q13404 (whole entry, looked up): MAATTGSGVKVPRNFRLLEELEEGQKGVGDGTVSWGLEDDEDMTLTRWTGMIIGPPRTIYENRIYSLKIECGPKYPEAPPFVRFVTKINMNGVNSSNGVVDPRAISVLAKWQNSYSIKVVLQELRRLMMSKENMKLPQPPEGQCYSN
Technique: yeast two-hybrid
Matrix: yeast
Notes: mostly zero background
Relative to: not given
Reading: higher = stronger interaction
B1: RNF166 RING domain (UniProt Q96A37); chain GDSGLEAQYTCPICLEVYHRPVAIGSCGHTFCGECLQPCLQVPSPLCPLCRLPFDPKKVDK
B2: RNF152 RING domain (UniProt Q8N8N0); chain ETLSQDSLLECQICFNYYSPRRRPKLLDCKHTCCSVCLQQMRTSQKDVRCPWCRGVTKLPPGFS
B3: RNF187 RING domain (UniProt Q5TA31); chain ALPAGPAEAACALCQRAPREPVRADCGHRFCRACVVRFWAEEDGPFPCPECADDCWQRAVEP
B4: RNF183 RING domain (UniProt Q96D59); chain EQQGRELEAECPVCWNPFNNTFHTPKMLDCCHSFCVECLAHLSLVTPARRRLLCPLCRQPTVLASGQP
B5: TRIM26 RING domain (UniProt Q12899); chain PLRSLEEEVTCSICLDYLRDPVTIDCGHVFCRSCTTDVRPISGSRPVCPLCKKPFKKENIRP
B6: TRIM54 RING domain (UniProt Q9BYV2); chain SMDNLEKQLICPICLEMFSKPVVILPCQHNLCRKCANDVFQASNPLWQSRGSTTVSSGGRFRCPSCRHEVVLDRHGV
B7: TRIM31 RING domain (UniProt Q9BZY9); chain FVNKLQEEVICPICLDILQKPVTIDCGHNFCLKCITQIGETSCGFFKCPLCKTSVRKNAIRF
B8: RNF122 RING domain (UniProt Q9H9V4); chain AKKLQLYGQTCAVCLEDFKGKDELGVLPCQHAFHRKCLVKWLEVRCVCPMCNKPIASPSEAT
B9: ANAPC11 RING domain (UniProt Q9NYG5); chain GICRMAFNGCCPDCKVPGDDCPLVWGQCSHCFHMHCILKWLHAQQVQQHCPMCRQEWKFKE
B10: MEX3B RING domain (UniProt Q6ZN04); chain SGLRRKGSRDCSVCFESEVIAALVPCGHNLFCMECANRICEKSEPECPVCHTAVTQAIRIF
B11: RNF31 RING domain (UniProt Q96EP0); chain AFLRRLLAQECAVCGWALPHNRMQALTSCECTICPDCFRQHFTIALKEKHITDMVCPACGRPDLTDDTQLL
Molecule	lacZ reporter activity
B1 (RNF166 RING domain)	0
B2 (RNF152 RING domain)	0
B3 (RNF187 RING domain)	0
PEELAVNNDDCAICWDSMQAARKLPCGHLFHNSCLRSWLEQDTSCPTCRMSLNIADNNR (AMFR RING domain (UniProt Q9UKV5))	0
FVKTVEDKYKCEKCHLVLCSPKQTECGHRFCESCMAALLSSSSPKCTACQESIVKDKVF (TRAF3 RING domain (UniProt Q13114))	0
MNDVLENELQCIICSEYFIEAVTLNCAHSFCSYCINEWMKRKIECPICRKDIKSKTYSL (RNF8 RING domain (UniProt O76064))	0
YCEMGSTFQLCKICAENDKDVKIEPCGHLMCTSCLTAWQESDGQGCPFCRCEIKGTEPII (CBLB RING domain (UniProt Q13191))	0
B4 (RNF183 RING domain)	0
QVQSRTKIEECVVCSDKKAAVLFQPCGHMCACENCANLMKKCVQCRAVVERRVPFI (MIB1 RING domain (UniProt Q86YT6))	0
B5 (TRIM26 RING domain)	0
B6 (TRIM54 RING domain)	0
B7 (TRIM31 RING domain)	0
B8 (RNF122 RING domain)	0
B9 (ANAPC11 RING domain)	0
B10 (MEX3B RING domain)	0
B11 (RNF31 RING domain)	0

Series 2
Target: Sal-like protein 4, full length isoform A (SALL4, Homo sapiens, UniProt Q9UJQ4, residues 1-1053)
Sequence of UniProt Q9UJQ4 (whole entry, looked up): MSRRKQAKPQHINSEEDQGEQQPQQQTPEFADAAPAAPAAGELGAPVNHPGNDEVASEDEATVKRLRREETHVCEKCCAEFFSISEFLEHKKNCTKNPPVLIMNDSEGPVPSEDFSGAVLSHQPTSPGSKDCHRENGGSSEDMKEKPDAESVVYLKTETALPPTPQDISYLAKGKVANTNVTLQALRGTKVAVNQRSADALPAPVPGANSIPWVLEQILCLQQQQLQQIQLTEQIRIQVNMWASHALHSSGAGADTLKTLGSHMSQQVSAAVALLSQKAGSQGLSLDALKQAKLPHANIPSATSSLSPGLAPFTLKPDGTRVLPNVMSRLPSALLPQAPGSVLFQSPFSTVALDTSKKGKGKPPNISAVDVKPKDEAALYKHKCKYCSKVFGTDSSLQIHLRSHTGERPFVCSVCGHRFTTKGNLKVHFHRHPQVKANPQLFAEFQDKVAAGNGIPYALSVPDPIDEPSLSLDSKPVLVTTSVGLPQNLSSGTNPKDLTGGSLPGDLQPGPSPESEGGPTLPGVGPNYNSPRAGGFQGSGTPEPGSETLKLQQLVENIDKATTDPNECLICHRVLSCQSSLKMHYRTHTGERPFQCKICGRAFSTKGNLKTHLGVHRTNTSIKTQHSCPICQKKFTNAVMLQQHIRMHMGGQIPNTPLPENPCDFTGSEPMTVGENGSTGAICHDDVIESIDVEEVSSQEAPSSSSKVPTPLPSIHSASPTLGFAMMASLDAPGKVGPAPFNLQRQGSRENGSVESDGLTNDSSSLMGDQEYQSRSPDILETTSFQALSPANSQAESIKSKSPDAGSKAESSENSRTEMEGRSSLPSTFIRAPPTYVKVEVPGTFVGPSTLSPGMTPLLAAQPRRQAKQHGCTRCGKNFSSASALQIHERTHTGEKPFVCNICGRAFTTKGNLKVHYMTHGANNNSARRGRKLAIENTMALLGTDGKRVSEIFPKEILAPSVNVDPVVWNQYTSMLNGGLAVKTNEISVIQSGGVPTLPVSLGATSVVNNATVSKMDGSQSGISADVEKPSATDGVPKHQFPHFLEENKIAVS
Technique: universal PBM
Form: double-stranded DNA, one strand shown
Matrix: in vitro
Concentration: 600 nM
Notes: 8-mer, flanks averaged, mean of replicates
Reading: higher = stronger binding
Sequence	E-score
AATATTAC	0.435
GGTTGGTA	0.0395
GGCGGTCA	-0.317
ACACTCGC	-0.0923
CAGGGTGG	-0.211
CTTTTCAA	0.254
AGGCTTAG	-0.0553
AAAGCTGA	0.0941
GGCCGAAA	-0.0201
ATGTTGCA	0.118
AATCGGCA	0.181
CCTCGGGC	-0.299
CATTGTCG	0.0173
ATCGTGGG	-0.0473
TTACAGAA	0.219
ACAGTGTG	0.128
CGTTTCCC	-0.246
AGGTGTGG	-0.239
CGGGCGAC	-0.4
CATCTGGA	-0.179
AACAATTA	0.379
TCTCGCAA	0.0244
GAGTGCCA	-0.184
GGACAGCC	-0.327
GGCATACC	-0.219

Series 3
Target: RING finger protein unkempt homolog, zinc fingers 1-6, GST-SBP tag (UNK, Homo sapiens, UniProt Q9C0B0, residues 30-357)
Technique: RNA Bind-n-Seq
Form: RNA
Matrix: in vitro
Concentration: not given
Notes: RNA with constant flanks, human-mouse chimeric sites, ends assumed
Relative to: input RNA pool
Reading: higher = stronger binding
Shared flanks, not repeated: GGGAGUUCUACAGUCCGACGAUC … CAACAGAGGAUUGAGCAUCA
Construct (chain): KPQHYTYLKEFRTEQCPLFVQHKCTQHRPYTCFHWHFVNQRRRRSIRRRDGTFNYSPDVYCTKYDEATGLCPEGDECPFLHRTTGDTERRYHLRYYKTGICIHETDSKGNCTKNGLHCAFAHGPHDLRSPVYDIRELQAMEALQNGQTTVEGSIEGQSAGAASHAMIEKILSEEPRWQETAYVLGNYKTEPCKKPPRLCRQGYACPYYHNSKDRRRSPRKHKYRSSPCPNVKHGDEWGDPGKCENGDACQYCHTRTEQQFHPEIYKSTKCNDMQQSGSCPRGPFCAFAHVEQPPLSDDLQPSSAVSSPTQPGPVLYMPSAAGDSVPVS
Sequence	bound/input enrichment
GAGCGUCUUGCCCGCACUGGGAUCAUCGUGACCACUAGUGAGGCUGUUCUGCUUCAGCUGGUGGCUGAUAAGGACCACCCGAAGUUCAAGGAAAUUCAGAACCUAAUUAAGGCGAGUGCC	0.0833 ratio
AUCAAGUAUUUUGGGGACAUCAUUAGUGUGGGACAGAGACUGUUGCAAGGAGCUCGGAUCUUAGGGAUUCCAGUUAUCAUAACGGAACAAUACCCCAAAGGACUUGGCAGCACCGUUCAA	0.193 ratio
AGAUAUUUUGAAGAAAAAAAAAACUCGAACAGAUUUGACAAGGGUAGCCAGCUUGGAGUCUAGCAACUUGCCAAUGUGUUUACCAAUCUGGGGGCUUGUUUUUCUUUUCUUCUUUCAAAU	0.451 ratio
CGCUGGCCCAAGCUGAUGGACUCUGAUCUUGAUCUCUUCUCAGGCACGUGUGCCUUCUCUUAGUCCCUGUUUUCGGGUCACAAAGCUUCUCAGUACUGUGGUUUGAAAGCACCAGCUUUG	0.135 ratio
UCCUUGGAACCCAGUCAUAUAGGUGACCUGCAAAAAGCAGACACCAGUAGUCAAGGUGCUUUAGUGUUUCUCUCAAAGGACUACGAGAUAGAAAAUCAAAAUCCCCUGGCCUCUCCUACG	1.58 ratio
GAUAAGAAAAGCUUGUUGGAGACCCGAUUGCAUGUCACUGGUAGAGACCUGAGGUGUCAAAUAGCUGAAACUUUCGGAUUUCAAGAAAAUUACAUCAAGAUCGUAAUAAAUAAGAAACAG	0.252 ratio
GUAUACGGUUAUCGAGGAAAGGACUGUAGAGCGAAUGUAUACCUGCUUCCCACAGGGGAGAUAGUUUAUUUCAUUGCCUCAGUGGUAGUCCUGUUUAAUUAUGAGGAGAGAACUCAGCGA	1.34 ratio
UUGCUACUAACUCCAUGGGUCAAGUUCCUGUGGGAAUCAUACAGGCAGUGUUUGGACCUUCUUCGAAACAAUUCUAGAGUAGAGCGCCUUUACCAUGAUAUUGCCCAACAAGCUUUCAAA	0.15 ratio
UGGCGCCUGCGCUCCCCACUCGUGUUUUUAAGUGUAUAAGAUGUAUACAUGUGUAUUUACAAUUGAGCUUUUGUUACAUAAUGCUGAAAUGCUACUGGAGAUUAUGAAAAAUGUUUCAAU	0.135 ratio
AAAGAACCUCUCUCUGAUGAAGAUGAGGAAGACAAUGAUGAUGUUGAACCUAUUACUGAAUUUCGAUUUGUGCCCAGUGAUAAGUCAGCAUUGGAGGCAAUGUUCACAGCAAUGUGUGAG	0.235 ratio
AUCAAAUACUUUGGGGACAUCAUUAGUGUGGGACAGAGACUGUUGCAAGGGGCCCGGAUCUUAGGGAUUCCAGUUAUCAUAACGGAACAAUACCCCAAAGGUCUUGGCAGCACCGUUCAA	0.184 ratio

Series 4
Target: RNA binding protein fox-1 homolog 2, RRM domain, GST-SBP tag (RBFOX2, Homo sapiens, UniProt O43251-10, residues 100-194)
Technique: RNA Bind-n-Seq
Form: RNA
Matrix: in vitro
Concentration: 365 nM
Notes: natural RNA segment, single round, ends assumed
Relative to: no-protein control
Reading: higher = stronger binding
Shared flanks, not repeated: GGGAGUUCUACAGUCCGACGAUC … UGGAAUUCUCGGGUGCCAA
Residues (chain): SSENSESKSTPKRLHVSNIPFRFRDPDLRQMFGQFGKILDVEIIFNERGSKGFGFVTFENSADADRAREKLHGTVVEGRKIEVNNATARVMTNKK
Sequence	RBNS enrichment (R)
GGAGAUUGAGUUUAUACCCCCUAGUCUCUCACAUUCAAAUCUAGUAGCCUGUAACCACUUUUAAAUGGCUUGAAAUUAGGAAACUUGUACAUUUAAUGUACACUUUGCGG	1.79
UGAUUCUGAGGCUGCUGAGACUGAACAUGUUCACAUUGACAGAAAAACAAGCUGCUCUUUAUAAUAUGCACCUUUUAAAAAAUUAGAAUAUUUUACUGGGAAGACGUGUA	0.634
GUCUUUUGAUAUAUUCUAAGCUAUCCUCCUUCCCCUCCUUGGUUACAGGUGUACUCUGCCAUGUGUAGCUCUUAAAACGGCCCAUGGUACCUACUAAGCAGAGCAAGGCC	0.257
AUACACAUUGUUGUUUUUGCUGGUCUCAUCUUUGGUAAUAUGCUAUACCCCACUGCUGCCCGACACUGCCCUUUAGCUGCAGAGCUGGAUUAGCUGUUGACCAUUUGAUG	0.504
AAUGCAGAUUGGAUUCUUUGAUGUUCAAAUUUCUCAUUUACUUAUGAAAAUCCCUAAUUAUAUAGUUUUAUAUAAUGUGUAUACAGAGUAGGAUUGUUGAUGAAAUUGAG	0.377
UUGAUACUUUAAAAGGACUUUAUAUUUGUAACAUUGAUGUUAACCAGUUUAUUAGUUUAAAUCAGUACUUUGCAUAUAAUAAGCAUUCAACAAAAAUUUAUUGACUGAAA	0.437
GGGAGAAGCUUCUCUGAGGGGCUCGCUCUGCUUUUCCUUCACGGUUUUAUUUUUGAUUGUUUUUUCUUGUUGCCCAUCUGUGCUAAGCCUUAACUGUGGCAAAAAUAAUG	0.416
UACUACAUGAUUUGUUCCCAGAGGUUUGAAACAUUCAGUGAAACUUUUUAAAACUUUGAUUGCAUGAUGUAUUUUUUUUUUAGAAAGUUAUUGUUUGAGAAUAAUGUCUU	24.1
UAAAGAAAUGGGUUUAUUUUUCCAGCAUAAACCUCAGAAUUUAAGGAAAGAAAAUGAUGUCUGUUGUUAUAGUUCAUUGUUUUGCCUACUCAGCAGAAGUGAUGACUCUU	0.364
CGCUCUAAAAAUUACCAGAGUAAGAAAAAGCUAGGUACUUUAAAGUGAGUUUGAGAAACAAGUUGAAACUAAAAUUAAAAUACCAGCCAUUUAGGUGCUUUCUCUGGCAU	0.386
GGCGGGCUCAGGAGAGUCCAUAGAUCAGCCGUAACUGGAACGUAGAAUCUACGUCUGCCUCUGAAUGGACUUCCCACCUCCUCUCUCUUGCUCUGAUGCUUGCCUCUGGG	0.665
AUCUCAUCAUCUCACGAAUCUGCUGUAAUAUAAGACAACAGCUUUUAAAUGUGUAUAUAACCCAUGAUUUCGGUUUUGUUUUGUUUUGUUUUUCUUGAUGGUUUCCCUCU	0.648

Series 5
Target: Histone acetyltransferase KAT6A, winged helix 2, GST fusion (KAT6A, Homo sapiens, UniProt Q92794, residues 85-181)
Technique: protein binding microarray
Form: double-stranded DNA, one strand shown
Matrix: in vitro
Concentration: not given
Notes: 8-mer, flanks averaged, mean of 2 arrays, mostly near background
Relative to: not given
Reading: higher = stronger binding
Residues (chain): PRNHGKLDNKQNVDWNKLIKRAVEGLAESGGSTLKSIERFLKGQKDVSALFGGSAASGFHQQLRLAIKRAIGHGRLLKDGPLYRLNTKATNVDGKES
Sequence	E-score
CGAAAAAG	0.0791
ACTCCTTA	-0.317
ATATGCAC	-0.0796
ACCGTCCG	0.0982
CCTGCCCC	0.132
GAAATCCC	0.0763
AGCTTGAT	-0.0299
CATACCTC	0.0861
TGCTTCCA	0.025
CTACCTAG	-0.206
AAGATACG	0.0772
TCAGAGAA	0.0236
AGCAACAC	0.125
TACGAGCA	-0.167
ATAAGCTC	-0.0646
TAGGCCAA	0.0384
AACTACCT	-0.127
